# Published values pooled from the literature.
# Every numbered part comes from another study and shows a few of its results, in no order.

# Sample 1
# Target: Centromere-binding protein 1, full length, N-terminal tag (CBF1, Saccharomyces cerevisiae, UniProt P17106, residues 1-351)
# Sequence of UniProt P17106 (whole entry, looked up): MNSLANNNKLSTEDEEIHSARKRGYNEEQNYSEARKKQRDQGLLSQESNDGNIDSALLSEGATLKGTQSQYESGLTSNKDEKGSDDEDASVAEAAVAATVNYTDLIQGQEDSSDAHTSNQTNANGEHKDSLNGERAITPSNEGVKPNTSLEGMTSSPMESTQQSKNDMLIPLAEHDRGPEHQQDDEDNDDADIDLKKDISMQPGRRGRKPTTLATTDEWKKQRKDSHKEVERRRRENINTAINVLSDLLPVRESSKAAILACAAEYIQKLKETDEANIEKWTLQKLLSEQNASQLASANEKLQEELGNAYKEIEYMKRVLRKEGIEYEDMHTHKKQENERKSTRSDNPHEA
# Technique: protein-binding microarray
# Molecule type: double-stranded DNA, one strand shown
# Matrix: in vitro
# Tested at: 0.8 µM
# Notes: whole 60-bp probe, no competitor
# Reading: higher = stronger binding
# Shared flanks, not repeated: … GTCTTGATTCGCTTGACGCTGCTG
Strand,fluorescence intensity
GAAATAAAAGAAAAACACGTTTGAAAAAAGAAATAG,636 a.u.
CTACAAATAATATGAGTCGTGACGACATCAAATTTC,683 a.u.
GAAACTTTGACCTGTGACATCACGTTGGCTTGGTAG,1220 a.u.
CTATGGAGACCACATAATCACACGTGATAAATATTC,13000 a.u.
TGTACGAAGCTATGTCATGTGAGTATAGTAGTTAGG,1670 a.u.
GAACCCTGAAAATGTGGTGTGGTTACTAAGCAGTAG,528 a.u.
CTAGTGACAGAGTCTCAGGTGAAACAAATTAATTTC,509 a.u.
GAATATATATCACATCACGCCAAGCTTACGCATTAG,704 a.u.
CTACGCTGCGAAGGTGACGTAGCAATCCAAAAATTC,509 a.u.
CCTAACTACTATAAACACGCTCAATAGCTTCGTACA,519 a.u.
GAAACAAATAGTTAGCATCAGGGAATTTGTATTTAG,508 a.u.
GAAAGCCTTCTTTTCCACGTTTGTTTCAAAACTTAG,563 a.u.
CTACCACCCCCGCATCACACCCAGTCTTCTAGCTTC,517 a.u.
GAATATTTTATCGGAAACGTGTACCGTGAAATGTAG,712 a.u.
TGTACGAAGCTATATCACACCCTTATAGTAGTTAGG,555 a.u.
CTATATCTTTAGATTAACGTCACCAATTTCATATTC,529 a.u.
CTAATCAAAAAAAAGAACGCCACGTTTGAATTTTTC,525 a.u.
CTAGCGAAAAGATGTCACACGTCAGTAAATCCGTTC,849 a.u.
CTAAAAGAAAGGCAACACATGAAAGGAAGAAAATTC,556 a.u.
CTACTATCTGAACTGCACGTTTAAATTTTTACCTTC,624 a.u.
CCTAACTACTATAACCACGACTAATAGCTTCGTACA,518 a.u.
GAACAAGGTTAGTATCACGTCAATTCTTTCAAATAG,531 a.u.
CTAGATTTGTTGGATTGCGTGTTTACGATCCATTTC,501 a.u.
TGTACGAAGCTATATGCCGTGACTATAGTAGTTAGG,633 a.u.
GAAATAAGATAATTGCACATGCAAACAGTCAATTAG,594 a.u.

# Sample 2
# Target: Fragile X messenger ribonucleoprotein 1, C-terminal low-complexity region (Fmr1, Mus musculus, UniProt P35922)
# Technique: RNA Bind-n-Seq
# Molecule type: RNA
# Matrix: in vitro
# Tested at: 200 nM
# Notes: whole 134-nt RNA, ends assumed
# Together with: 150 mM KCl
# Baseline: input library
# Reading: higher = stronger binding
# Shared flanks, not repeated: GGGAGUUCUACAGUCCGACGAUC … UGGAAUUCUCGGGUGUCAAGG
Strand,log2 enrichment
AAGUCCUGUGCUACACAUCGUAUGUACCGAAUCGGUUUGGGGUUUGGGGUUUGGGGAAAGUAUUAUGUUACGCCGUUCGGAUCUGCACUU,-0.0148
GUCCUGUGCUACACAUCGUAUGUACCGAAUCGGGGAAAAAAAGGGGAAAGGGGUGGGGAAAGUAUUAUGUUACGCCGUUCGGAUCUGCAC,0.396
CCUCAAGUCCUGUGCUACACAUCGUAUGUACCGAAUCGGUGGUUUUUGGAGGAAAGUAUUAUGUUACGCCGUUCGGAUCUGCACUUCCAG,0.252
CAAGUCCUGUGCUACACAUCGUAUGUACCGAAUCGGGUGGGAAAAAGGGUUUGGGAAAGUAUUAUGUUACGCCGUUCGGAUCUGCACUUC,1.06
ACCAUGCAGGUGGGCAUCUUUGGGAAGUGGGGCAAGGGGGGGAUAGGGAGGGGGGCAACACUUUGGGAACAGGUGGUCCCAGGUCGUUUC,1
UCAAGUCCUGUGCUACACAUCGUAUGUACCGAAUCGGGCCCGGGGCCCGGCCCGGAAAGUAUUAUGUUACGCCGUUCGGAUCUGCACUUC,-1.14
UAACUUUAGAGGAGGAUCUGAUGGAUAUGGCAGUGGACGUGGAUUUGGGGAUGGCUAUAAUGGGUAUGGAGGAGGACCUGGAGGUGGCAG,0.227
CUGUGCUACACAUCGUAUGUACCGAAUCGGGCCCCCCCGGGCCCCCCCGGGGCCCCCCCGGAAAGUAUUAUGUUACGCCGUUCGGAUCUG,-1.17
CACAGACAACACGCACCCACACAGACACAGAGGGAAGGGGUUGGGAUGGGGACAGGGUGCACAGCAGGUCGGGGUAGGACCCCAGCCCCU,1.15
UCUGAGGUCACCAAGCCUCCUCCUUGCUUGGAGAACUCCUCGCCUCCCUCCAGGAUUCCGGAGCCUGAAUCCCCAGCGAAGCCAAACGUC,-0.0472
CAAGUCCUGUGCUACACAUCGUAUGUACCGAAUCGGGGCCCGGGGCCCGGCCCGGAAAGUAUUAUGUUACGCCGUUCGGAUCUGCACUUC,-0.332
UGGCCCUGGUGGCAUGCGGGGAGGAAGAGGUGGCCUCAUGGAUCGUGGUGGUCCCGGAGGAAUGUUCAGAGGUGGCCGUGGUGGAGACAG,0.331
CCUCAAGUCCUGUGCUACACAUCGUAUGUACCGAAUCGGGGUGGGUGGGUGGGAAAGUAUUAUGUUACGCCGUUCGGAUCUGCACUUCCA,-0.774
CAAGUCCUGUGCUACACAUCGUAUGUACCGAAUCGGGGUGGGGUGGGGUUUGGGGAAAGUAUUAUGUUACGCCGUUCGGAUCUGCACUUC,1.12

# Sample 3
# Target: Histone acetyltransferase KAT6A, winged helix 1, GST fusion (KAT6A, Homo sapiens, UniProt Q92794, residues 1-85)
# Technique: protein binding microarray
# Molecule type: double-stranded DNA, one strand shown
# Matrix: in vitro
# Tested at: not given
# Notes: 8-mer, flanks averaged, mean of 2 arrays, mostly near background
# Baseline: not given
# Reading: higher = stronger binding
# Residues (chain): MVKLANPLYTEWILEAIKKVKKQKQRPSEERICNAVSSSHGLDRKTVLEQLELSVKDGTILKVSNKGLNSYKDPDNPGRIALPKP
Strand,E-score
AGCTAATC,-0.05
ACATAAGA,-0.112
ATCCGTCG,0.345
ACTCGTGA,-0.269
ACCACTAT,-0.246
AGTCTACC,0.0872
AGCTACAA,-0.113
CGGTCCCA,0.135
CAGCTTAC,0.0673
GCTCGTCA,0.046
CGAGCAAA,-0.179
ATGTGCCC,0.0307
GAAATGGA,-0.179
TGTTCCAA,-0.229
AATCACGG,0.232
ACAGGAAT,-0.24
CGCGAACC,0.278
ATTAGGAG,-0.192
AGCTTATA,-0.166
CACATACC,-0.0162
AAACTAAA,-0.263
CATTCGGC,0.176
ACGAGTTG,-0.222
ACAAAATC,-0.151
AATAGTGG,-0.144

# Sample 4
# Target: Sal-like protein 4, full length isoform B (SALL4, Homo sapiens, UniProt Q9UJQ4-2, residues 1-616)
# Technique: universal PBM
# Molecule type: double-stranded DNA, one strand shown
# Matrix: in vitro
# Tested at: not given
# Notes: 8-mer, flanks averaged, mean of replicates
# Reading: higher = stronger binding
Strand,E-score
CACGAGTG,-0.159
ATACGGAC,0.0141
AACGAACC,-0.0681
AAGGACGC,-0.0735
GTTCAGTA,0.106
CGCGCCCA,-0.314
GACAGGAC,-0.152
AATACGTC,0.119
AGCATGAC,-0.104
TACAGCAA,0.0591
ACGATGTC,-0.142
GGAGTTAC,-0.0422
CCCGGCGA,-0.387
ACTGCCTA,0.0365
ACAGGTAC,-0.0261
AAATCTGC,0.0855
AAGCGATC,-0.00225
ACTCTACT,0.0651
ATCGTTCG,-0.00558
CTCACCAG,-0.187
CCTGACGA,-0.0849

# Sample 5
# Target: RNA binding protein fox-1 homolog 2, RRM domain, GST-SBP tag (RBFOX2, Homo sapiens, UniProt O43251-10, residues 100-194)
# Technique: RNA Bind-n-Seq
# Molecule type: RNA
# Matrix: in vitro
# Tested at: 365 nM
# Notes: natural RNA segment, single round, ends assumed
# Baseline: no-protein control
# Reading: higher = stronger binding
# Shared flanks, not repeated: GGGAGUUCUACAGUCCGACGAUC … UGGAAUUCUCGGGUGCCAA
# Construct (chain): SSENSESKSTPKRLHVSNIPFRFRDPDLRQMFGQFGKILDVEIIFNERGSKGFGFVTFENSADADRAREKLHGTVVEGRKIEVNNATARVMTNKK
Strand,RBNS enrichment (R)
UUUAUCAUUGGGAGAAGCCGCAGGGACAGAACUGAACGUCCUGCAGCUUCGGGGCAAGUGAGACAAUCACAGCUCCUCGCUGCGUCUCCAUCAACACUGCGCCGGGUACC,0.273
UACAGGCGUGAGCCACCACGCCCAGCCAGGGUUUUCUUUUUUAAUCCUUUCCAGAAACAGAAAGAGCUCUUAACCUCUCUGAGCUCUUUCUGCAAUUCCUUUGGGCGAUU,0.389
AGGGCCACGGCCUUGGCCUGGGCCACCGUGACAUUGGAAGAGCCUGUGUGAGAACUUACUCGAAGUUCACAGUCUAGGAGUGGAGGGGAGGAGACUGUAGAGUUUUGGGG,1.26
CUGGGCACAGCUCUGCGUUGCUCCCGUGCUGCCUGCGCCAGCCCCAGGCUGCUGAGGAGCAGAGGCCAGACCAGGGCCGAUCUGGGUGUCCUGACCCUCAGCUGGCCCUG,0.215
CAGCUCUUGAAUUGCUCAUACAGAACAAUUCUGCUGGUGCUGGAGUCUGAAGAAUAUUUUCAUUUGCAUUUUAGUGGUUAGGGAGAGGAUAUAAGAUUAAUGGAAUGUAU,10.4
UUCCUGCUAUAAUCCCUGAUGAAAACCUGACGGUGAACUCACUAAUAAACAAGACUGACUCCUUCUUAGCUUCUGGGGGUGAAUUGUGUGGACAGCAGAAUUGAGGCUGU,1.3
UCCCCGCAGAGUCUCCGGUGCAGACGCGCUGCGGGGAUGGGGAGCGGCGUGCCAAUCUGCGGGUCCCCUGCGGCCCCUGCUGCCGCUGCGCUGUCCCGGCCGCAAGAGCG,0.203
UUCACCUGUGAUGCUAGCAUUAAUGGCACCACCAUAUUCAUGCCAGUAGGCUCCCUGCAGUCCUUGGGAACUAUCCAAGCACGAAUCAGCAGAAGCUUGUAGGAUGAGUG,0.511
UGUGGGUUGGGUUCGUACCAGCAAGUAGACUAGGAACUGAGCCCAGGAAAGGGGGAUGUUUUCCUGGUGUUUGGAUGGUCAGCUGGGAGUGUCCAUCAUCAGGGGAAGAU,0.716
UGGAGACAAAAGUCCUAUUUUCUGUUUUCUUUUGUCUUUUGAUCUUUAAUUCACUAAUUAAUAGUGACCUGUUGUUAAAUCCAAAUCCACUUUGCUGAAAAAUACUGUAC,0.605
CAGAUCUGUUUCAAAAACAAAUACAAAAAUGAGAAUGAAAAGUUUGCUUAAGACUAAGUCCAGUGUUUUUCAUUUUCCCUUUGGCUGAAUAUUUCAAUUGACAAACCAGC,0.538
AAAAACAAUUUUUUUCAUAACAUAAUUCCCAUUUUUAUUUAUUUUGAGUCACUCAUAAUUAAUUGCCAAAAAAGCAUUUUAUACAUUGAGUUGGGGGGUAGUGGAUCUUA,0.677

# A few entries again (sample 5):
Strand,RBNS enrichment (R)
UACAGGCGUGAGCCACCACGCCCAGCCAGGGUUUUCUUUUUUAAUCCUUUCCAGAAACAGAAAGAGCUCUUAACCUCUCUGAGCUCUUUCUGCAAUUCCUUUGGGCGAUU,0.389
UGGAGACAAAAGUCCUAUUUUCUGUUUUCUUUUGUCUUUUGAUCUUUAAUUCACUAAUUAAUAGUGACCUGUUGUUAAAUCCAAAUCCACUUUGCUGAAAAAUACUGUAC,0.605
AGGGCCACGGCCUUGGCCUGGGCCACCGUGACAUUGGAAGAGCCUGUGUGAGAACUUACUCGAAGUUCACAGUCUAGGAGUGGAGGGGAGGAGACUGUAGAGUUUUGGGG,1.26
UUCACCUGUGAUGCUAGCAUUAAUGGCACCACCAUAUUCAUGCCAGUAGGCUCCCUGCAGUCCUUGGGAACUAUCCAAGCACGAAUCAGCAGAAGCUUGUAGGAUGAGUG,0.511
UUCCUGCUAUAAUCCCUGAUGAAAACCUGACGGUGAACUCACUAAUAAACAAGACUGACUCCUUCUUAGCUUCUGGGGGUGAAUUGUGUGGACAGCAGAAUUGAGGCUGU,1.3
UGUGGGUUGGGUUCGUACCAGCAAGUAGACUAGGAACUGAGCCCAGGAAAGGGGGAUGUUUUCCUGGUGUUUGGAUGGUCAGCUGGGAGUGUCCAUCAUCAGGGGAAGAU,0.716
